Measurements pooled from the literature.
Each numbered part is a random draw from the data of one study; scales do not carry over between parts.

Series 1
Target: Sal-like protein 4, full length isoform A (SALL4, Homo sapiens, UniProt Q9UJQ4, residues 1-1053)
UniProt Q9UJQ4, sequence (whole entry, looked up): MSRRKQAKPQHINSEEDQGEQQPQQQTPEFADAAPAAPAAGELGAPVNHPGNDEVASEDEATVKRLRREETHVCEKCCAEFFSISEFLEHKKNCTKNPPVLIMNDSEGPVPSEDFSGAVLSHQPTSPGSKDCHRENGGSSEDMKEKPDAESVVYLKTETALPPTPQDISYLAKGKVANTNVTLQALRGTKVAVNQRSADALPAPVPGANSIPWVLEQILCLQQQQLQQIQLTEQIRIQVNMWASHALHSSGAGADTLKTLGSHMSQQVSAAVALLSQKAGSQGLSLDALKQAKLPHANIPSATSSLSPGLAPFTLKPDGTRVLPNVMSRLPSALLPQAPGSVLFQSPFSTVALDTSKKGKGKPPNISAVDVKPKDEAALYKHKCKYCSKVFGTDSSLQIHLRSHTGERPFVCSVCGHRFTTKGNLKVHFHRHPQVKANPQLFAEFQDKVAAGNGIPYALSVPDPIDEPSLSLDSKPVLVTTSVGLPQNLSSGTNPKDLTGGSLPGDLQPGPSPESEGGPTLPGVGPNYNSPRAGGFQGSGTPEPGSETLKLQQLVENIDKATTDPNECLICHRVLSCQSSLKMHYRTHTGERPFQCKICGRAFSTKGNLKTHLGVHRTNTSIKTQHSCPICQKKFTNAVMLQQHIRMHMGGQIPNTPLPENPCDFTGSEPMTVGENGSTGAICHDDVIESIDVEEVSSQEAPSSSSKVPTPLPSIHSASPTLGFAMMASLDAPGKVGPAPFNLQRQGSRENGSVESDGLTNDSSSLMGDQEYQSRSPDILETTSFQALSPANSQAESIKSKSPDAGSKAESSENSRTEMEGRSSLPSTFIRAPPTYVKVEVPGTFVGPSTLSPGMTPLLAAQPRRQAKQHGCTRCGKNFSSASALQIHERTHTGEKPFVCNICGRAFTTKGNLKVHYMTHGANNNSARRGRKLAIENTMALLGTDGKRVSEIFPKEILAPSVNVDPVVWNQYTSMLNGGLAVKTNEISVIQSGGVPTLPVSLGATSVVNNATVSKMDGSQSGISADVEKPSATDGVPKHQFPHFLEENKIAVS
Method: universal PBM
Form: double-stranded DNA, one strand shown
Matrix: in vitro
Tested at: 600 nM
Notes: 8-mer, flanks averaged, mean of replicates
Reading: higher = stronger binding
Sequence	E-score
GCTCGACC	-0.26
ACTACTCA	0.163
GCCTTGAA	-0.0999
ATAAGAGG	0.127
GATTAGAA	0.13
ATCACAGA	0.0897
ATGGGAAA	0.0238
CCATGCCC	-0.276
ACAATTCG	0.0897
GATTAGTA	0.256
AGAACACT	0.0202
ACAAAACA	0.159
AATGCATG	0.127

Series 2
Target: Prothrombin, mature alpha-thrombin (F2, Homo sapiens, UniProt P00734)
Method: aptamer microarray, sandwich
Form: DNA with 2'F-ANA
Matrix: in vitro
Tested at: 200 nM
Notes: whole 15-mer aptamer, many near background
Together with: Cy3 exosite-II aptamer, 400 nM
Reading: higher = stronger binding
Sequence: GGTTGGTGTGGTTGG
Modification	mean fluorescence intensity
2'F-ANA at 1 3 4 5 6 7 8 9 11 14	67.6 a.u.
2'F-ANA at 3 8 9 10 11 13 14	391 a.u.
2'F-ANA at 2 3 6 8 10 11 14	231 a.u.
2'F-ANA at 3 14	671 a.u.
2'F-ANA at 3 7 10 11 12 14	538 a.u.
2'F-ANA at 2 3 5 7 9 15	97 a.u.
2'F-ANA at 5 6 8 13 14 15	47.9 a.u.
2'F-ANA at 4 5 8 12 14 15	77.6 a.u.
2'F-ANA at 3 4 5 6 10 11 12 13 14 15	95.3 a.u.
2'F-ANA at 2 4 5 6 7 8 9 10 11 12 14 15	50.9 a.u.
2'F-ANA at 1 3 5 6 7 9 10 11 14 15	70.7 a.u.
2'F-ANA at 1 8 10 11	50.1 a.u.
2'F-ANA at 2 4 5 7 8 9 10 11 12 15	49.3 a.u.
2'F-ANA at 2 6 11 13	283 a.u.
2'F-ANA at 2 3 5 8 9 11 13 15	78.5 a.u.

Series 3
Target: Interferon regulatory factor 5, full length, phosphomimetic (IRF5, Homo sapiens, UniProt Q13568-2, residues 1-514, S451D/S453D/S456D/S462D)
Method: protein-binding microarray
Form: double-stranded DNA, one strand shown
Matrix: in vitro
Tested at: 940 nM top
Notes: 60-bp whole probe
Together with: salmon DNA 0.4 mg/ml
Relative to: random background probes
Reading: higher = stronger binding
Constant ends, left off below: GCCTAGCAC … GTCTTGATTCGCTTGACGCTGCTG
Sequence	fitted relative affinity [z-score]
TTAGGACTGGCTCTCGGTTAGTGCTAG	1.43
TTAGAACTCAGTTTCGATTAGTGCTAG	8.57
TGCTCCTTCTGACATCAACCCGTGCTA	0.695
GACGAACTGGGGACTGGAGATGTGCTA	-0.0977
TTAAGTATCGACTATCGGTTAGTGCTA	6.15
TGAGATATCGGGTTTCGATTAGTGCTA	4.89
TTAGGTCACGGTCTCGGTTAGTGCTAG	1.61
TTAGGTTTCCTTTCCCATTAGTGCTAG	2.16
CGCGCTTCTCGGCGGCGAAGGTGCTAG	-0.0334
CTAGGTTTCGGGACTGGGTTAGTGCTA	6.86
TCAGACTTGATTTTGGTACTGTGCTAG	-0.275
GGCAGGCTTGCCAGTTCCCCGTGCTAG	-0.477
GACGGACTGCATATCCTGACGTGCTAG	-0.475
AAAGATTTATCAAATGTGGGAGTGCTA	-0.59
GACGGCATCCTTATCCTGACGTGCTAG	-0.399

Single results of other studies
Molecule	target	test	test system	setting	scale	measurement	result
PhoQ, residues 284 288 289 292 302 303 TNASYF	PhoP, residues 12 14 15 18 19 TQAIL (Escherichia coli, UniProt P23836)	Sort-seq, refers to: YFP reporter	E. coli	PhoQ-PhoP variant library, together with: 10 µM Mg2+	relative to: high Mg2+ state, higher = stronger signaling	fold induction	19.4

Repeated from above (series 1):
Sequence	E-score
CCATGCCC	-0.276
ACAATTCG	0.0897
GATTAGTA	0.256
AGAACACT	0.0202
ACAAAACA	0.159
AATGCATG	0.127
